Results from different studies.
Every numbered part comes from another study and shows a few of its results, in no order.

Series 1 — technique: protein binding microarray; form: double-stranded DNA, one strand shown; medium: in vitro; tested at: not given; reference: not given; reading: higher = stronger binding
Target: Histone acetyltransferase KAT6A, winged helix 2, GST fusion (KAT6A, Homo sapiens, UniProt Q92794, residues 85-181)
Setting: 8-mer, flanks averaged, mean of 2 arrays, mostly near background
Construct (chain): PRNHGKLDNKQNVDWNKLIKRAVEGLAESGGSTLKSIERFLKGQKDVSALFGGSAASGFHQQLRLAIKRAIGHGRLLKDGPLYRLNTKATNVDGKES
`AAGACTTC` has an E-score of -0.211.
With `GATCAATC` the E-score was 0.0171.
The E-score of `AGGTACTC` is reported as -0.058.
The E-score of `GTGCGAAC` is reported as 0.111.
`GGAAAAAA` gave an E-score of 0.14.

Series 2 — technique: RNA Bind-n-Seq; form: RNA; medium: in vitro; tested at: 365 nM; reference: no-protein control; reading: higher = stronger binding
Target: RNA binding protein fox-1 homolog 2, RRM domain, GST-SBP tag (RBFOX2, Homo sapiens, UniProt O43251-10, residues 100-194)
Setting: natural RNA segment, single round, ends assumed
Shared flanks, not repeated: GGGAGUUCUACAGUCCGACGAUC … UGGAAUUCUCGGGUGCCAA
Residues (chain): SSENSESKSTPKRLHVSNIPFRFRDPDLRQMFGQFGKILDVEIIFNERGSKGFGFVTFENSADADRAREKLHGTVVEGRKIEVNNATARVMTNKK
For `UUUGUAAAACUGCUAAGCCAUUCUCAUGCACAUGGGUGAAUGACAUUUCCUAGGAACGGUCUCUGACUCCUGGACAACUACUCCUGUAUCGGCUCUGGCUCCCCGGAACC`, “RBNS enrichment (R)” read 0.728.
`GGGGAAAAAGAUAUUAACAUCACGUCUUUGUCUCUAGAGCAGUUUUCCGAGAUAUUCCGUAGUACAUAUUUAUUUUUAAACAGCAACAAAGAAAUACAGAUAUAUCUUAA` — result for “RBNS enrichment (R)”: 1.01.
`CAGAAUUUAUACCAAGAGACUCUUGUAGACGCCGCGGAUGUCCUCUAUAUUGUGAUACAGAAACUGUCAACUUUUCGCUCUGUGAACUGUUUUUAAGACACUUUGAUGUU`: “RBNS enrichment (R)” 0.422.
For `GCCCGGAGAGGCCAGAGGGUUGGAGCUGCAGGGACCCGUUUGGACCCACAGCCUCUGUUCUAGAGAUGCUUGUAUAGGCUGUUAAUUGUGAUGAAUAAACGUUCAACCCU`, “RBNS enrichment (R)” read 1.1.
For `CUCUAGAUAAAAUCUUAUUUCUUCAUACAUUGGACCACAAGGCAUAAAGAAGGUAGCUCAGCGCCACUGAGAUUGUGUUCUGCAUAAUAUUUGGAAGGCUUCCAUUUCCA`, “RBNS enrichment (R)” read 0.253.
Under “RBNS enrichment (R)”, `AUUUGAUCAGACCAAACAGUGCUGUUUCCCGGGGAGGAAACACUUUUUUAAUUACCCUUUUGCAGGCUCCCACCUUUAAUCUGUUUUAUACCUUGCUUAUUAAAUGAGCG` is recorded as 0.482.
`UCCGGCCCCCAGGCCAGGGUAGUGGACAAGCCUUGGAGGAGUGGUGACAGUUUGCAGCAGUGAGGAAGGACACGCACACACACACACACACACCACAGAAAAGCACAACC` — result for “RBNS enrichment (R)”: 0.745.
For `CCCUAGGUAGCUGGCUGUUUUGAUGAGGUCAUUUGAAUCAUGGGAGUGUCCUUACACUACACUAUCCUGAGCUGGUUGGGGUGGGUAGAAGAAGGCAAGGACUGCCUGAG`, “RBNS enrichment (R)” read 4.43.

Series 3 — technique: competition protein-binding microarray; form: double-stranded DNA, one strand shown; medium: in vitro; tested at: 2 µM; added: Cbf1 competitor, 0.05 µM; reading: higher = stronger binding; shared flanks, not repeated: … GTCTTGATTCGCTTGACGCTGCTG
Target: Phosphate system positive regulatory protein PHO4, full length, GST-tagged (PHO4, Saccharomyces cerevisiae, UniProt P07270, residues 1-312)
Setting: whole 60-bp probe, lowest competitor level
Residues (chain): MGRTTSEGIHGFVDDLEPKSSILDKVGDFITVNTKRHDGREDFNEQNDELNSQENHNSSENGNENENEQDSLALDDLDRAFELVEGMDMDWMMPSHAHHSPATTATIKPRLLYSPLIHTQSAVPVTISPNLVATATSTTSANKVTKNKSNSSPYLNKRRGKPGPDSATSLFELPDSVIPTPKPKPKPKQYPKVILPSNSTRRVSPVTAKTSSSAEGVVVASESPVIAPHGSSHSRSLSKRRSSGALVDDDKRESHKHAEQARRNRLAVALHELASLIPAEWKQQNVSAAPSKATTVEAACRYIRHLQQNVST
The fluorescence intensity of `AGGAGCCCTGATTTCTTCGTGCGATATCGGTGCGGG` is reported as 4770 a.u.
The fluorescence intensity of `GCCGCTGCACAATCTGGCGTGCCAGTAAAGCAATAT` is reported as 5900 a.u.
For `TTGAACCTTGGTCTTCACGTGGTGAAGTATTGGTAC`, the fluorescence intensity was 11800 a.u.
The fluorescence intensity of `CTTCTGTAAATTTGTTCTGTGGGTGGACGCGCCCCG` is reported as 4050 a.u.
The fluorescence intensity of `GGTTAGGTTGACCATCACGTGGAGGTCAGACATTAT` is reported as 15200 a.u.
For `CGTCCTAGTGATTGTATTGTGGGTGCCATGAGGAAG`, the fluorescence intensity was 7110 a.u.

Other studies, line by line
`PhoQ, residues 284 288 289 292 302 303 ASASEQ` has a fold induction of 6.8 (PhoP, residues 12 14 15 18 19 NQGLL (Escherichia coli, UniProt P23836); Sort-seq, item: YFP reporter; E. coli; PhoQ-PhoP variant library, added: 10 µM Mg2+; reference: high Mg2+ state, higher = stronger signaling).
